Results of several laboratories.
Compare with care: the assays were run in different laboratories. Several values in a cell are separate wells, animals, samples, runs or records. ± gives the spread as reported.

Cn1ncc2cc(-c3cncc(Cl)c3N3CCC4(CCNC4=O)CC3)ccc21  log2 fold change (LS174T; gene expression, microarray, item: KANK1 mRNA; concentration not given, 24 h; relative to: untreated cells): 2.52
CCC(CC)n1c(Cc2ccco2)nc2cc(C(=O)N[C@@H](CC(=O)O)c3ccccc3)ccc21  mRNA level (3T3 fibroblasts; item: α-SMA, Fn1, Col1α2, Timp1; concentration not given, 48 h, added: MCM): decreased
Cc1cc(Cl)cc(-c2ccnc3cc(CN4C(=O)C5C(C4=O)C5(C)C)sc23)c1C[C@@H]1CNCCO1 (some centres unmarked)  apoptotic cells (early plus late) (CHP-212 resistant cells (pooled); annexin V-PI flow cytometry; 0.3 µM, 48 h): 6.37% and 13.6% and 13.4%
CC12CCCC(NS(=O)(=O)c3cccc(F)c3)(C1)C1CC(C)(C)C1CC2 (centres unmarked)  inhibition (HT-29; cell growth or viability, CCK-8; 50 µM): 97.4%
COc1ccc(Br)c2c1OC1=C(C(=O)CCC1)C2c1c[nH]c2ccccc12 (centres unmarked)  mean lipid content (3T3-L1 mature adipocytes; lipolysis, Oil Red O staining; IC20): 0.596 OD492
C=CC(=O)N1CCCC(n2c(=O)c3ncccc3n(Cc3ccc(Oc4ccccc4)cc3)c2=O)C1 (centres unmarked)  IC50 (PCL-12; cell proliferation, MTT; 72 h): 7 µM
CCN(C(=O)c1cc(F)ccc1Oc1nncnc1N1CCC2(C1)CN([C@H](CCCN(C)CCOC)C(C)C)C2)C(C)C  GI50 (JEG-3; cell growth or viability; 72 h): > 10 µM
C=CCc1c(O)cc2c(c1O)C(=O)CC(c1ccc(O)cc1)O2 (centres unmarked)  inhibition (HeLa; cell growth or viability, MTT; 3.125 µM, 48 h): 2.17%
N#C[C@@H]1CCCN1C(=O)CNC(=O)c1ccnc2ccc(OCCCN3CCN(C(=O)CCc4ccc5c(c4)CN4CCN6CC(=O)[O][68Ga-]([O]C(=O)C4)([O]5)[O]c4ccc(CCC(=O)N5CCN(CCCOc7ccc8nccc(C(=O)NCC(=O)N9CCC[C@H]9C#N)c8c7)CC5)cc4C6)CC3)cc12  internalized fraction (HT1080 cells expressing human FAP; 15 min, 37 °C): 74.5 ± 2.1%
O=S(=O)(N[C@H]1CCO[C@@H](C2c3ccccc3CCc3ccccc32)C1)c1ccc(OC(F)(F)F)cc1  cleaved caspase 9 level (D425; immunoblot; concentration not given, 24 h): increased
CC[n+]1cccc2cc(/C=N/NC(=O)N/N=C/c3ccc4c(ccc[n+]4CC)c3)ccc21  ΔTm (22CTA telomeric G4-DNA antiparallel; FRET melting; 1 µM, K10 buffer, DNA 0.2 µM): 6.5 ± 0.8 °C
Cc1ncsc1-c1ccc(C(C)NC(=O)C2CC(O)CN2C(=O)C(NC(=O)CCCCCCCCCCN2CCCC(Nc3ncc(Cl)c(Nc4ccccc4S(=O)(=O)C(C)C)n3)C2)C(C)(C)C)cc1 (centres unmarked)  log2 fold change (22Rv1; RNA-seq, item: SLC25A21-AS1; concentration not given; relative to: DMSO): -1.32
CCC(=CCc1c(O)cc2c(c1O)C(=O)CC(c1c(O)cccc1OC)O2)CC (centres unmarked)  inhibition (HeLa; cell growth or viability, MTT; 6.25 µM, 48 h): 8.04%
Nc1ncc(-c2ccc([C@H]3[C@@H](F)[C@@H](F)C[C@@H](F)[C@H]3F)cc2)cn1  hepatic clearance (liver microsome stability; cynomolgus liver microsomes; 1 µM): 7.2 mL/min/kg
CC12CCCC(NC(=O)c3ccc(Br)cc3)(C1)C1CC(C)(C)C1CC2 (centres unmarked)  inhibition (HT-29; cell growth or viability, CCK-8; 10 µM): < 50%
CC(=O)N[C@@H](Cc1c[nH]c2ccccc12)C(=O)N[C@@H](CCC(=O)O)C(=O)N[C@@H](C)C(=O)N[C@@H](CC(=O)O)C(=O)COC(=O)c1c(C)cccc1C  cell lysis (THP-1 cells, LPS-primed; pyroptosis, LDH release; 25 µM, LPS 1 µg/mL, 4 h, added: nigericin 5 µM, 2 h): 34.8%
CC12CCCC(NS(=O)(=O)c3ccc(Cl)c([N+](=O)[O-])c3)(C1)C1CC(C)(C)C1CC2 (centres unmarked)  inhibition (HT-29; cell growth or viability, CCK-8; 50 µM): 100%
CC(=O)N[C@@H](CC(=O)O)C(=O)N[C@@H](CCC(=O)O)C(=O)N[C@H](C(=O)N[C@@H](CC(=O)O)C(=O)COC(=O)c1c(C)cccc1C)C(C)C  LDH release (THP-1 cells expressing FKBP-caspase-4; pyroptosis, inhibitor; concentration not given, added: B/B dimerizer): 24.1% and 19.7% and 15.3%
C[C@@H]1CC[C@@H]([C@](O)(CNCc2ccc(F)cc2)COCc2ccccc2)[C@H](OCc2ccccc2)C1  inhibition (A2780; cell growth or viability, MTT; 30 µM, 72 h): 99.9%
CCC(=CCc1c(O)cc2c(c1O)C(=O)CC(c1cc(OC)ccc1O)O2)CC (centres unmarked)  inhibition (HeLa; cell growth or viability, MTT; 0.781 µM, 48 h): 0.356%
C[n+]1ccc(/C=N/NC(=O)N/N=C/c2cc[n+](C)cc2)cc1  ΔTm (22CTA telomeric G4-DNA antiparallel; FRET melting; 1 µM, K10 buffer, DNA 0.2 µM, added: ds26 10 µM): 0.7 ± 0.6 °C
CCC(=CCc1c(O)cc2c(c1O)C(=O)CC(c1ccc(OC)cc1O)O2)CC (centres unmarked)  inhibition (HeLa; cell growth or viability, MTT; 1.563 µM, 48 h): 4.39%
CNS(=O)(=O)Nc1nccc(Cc2c(C)c3ccc(Oc4ncccc4F)cc3oc2=O)c1F  IC50 (Pfeiffer; cell viability, CellTiter-Glo; 7 days): > 1 µM
O=C(NCCO)c1ccc([C@H]2[C@@H](F)[C@@H](F)C[C@@H](F)[C@H]2F)cc1  hepatic clearance (hepatocyte stability; cryopreserved rat hepatocytes; 1 µM): 10 mL/min/kg
O=c1cc(Nc2cccc(O)c2)c2ccccc2o1  calcium mobilisation signal (COS-7 (untransfected); 500 µM, unit not given; relative to: 3 µM ionomycin): 2.7 ± 2.21
CC(C)c1ccc(N(C)c2ccc3c(c2)OCC[C@H]3CNc2cnccc2C(=O)O)cc1  IC50 (KYSE-150 overexpressing KDM4C; histone demethylation, immunoblot, item: H3K36me3; 24 h): 0.085 µM
CCc1c(-c2ccc3[nH]ncc3c2)cnc(N)c1-c1ccc(O)cc1  viability (CHP-212 resistant sublines, USP7 V517F heterozygous; 6.25 µM): 109%
CN1CCCNC(=O)c2cccc(c2)C(=O)NCCCN(C)CCCNc2cccc3c2C(=O)c2cccc(c2C3=O)NCCC1  log2 fold change (SAS; RNA-seq, item: FAM13A-AS1 mRNA; 1 µM, 6 h; relative to: untreated cells): 3.25
O=C(NCCSc1ccc2c(/C=C/c3ccccn3)n[nH]c2c1)Nc1ccc(F)c(F)c1  GI50 (BaF3; cell growth or viability, CCK-8): > 10 µM
CSC(=S)N/N=C(\C)c1ccc(S(=O)(=O)N2CCC(C)CC2)cc1  necrotic cells (MCF7; annexin V/PI; concentration not given, 72 h, at IC50): 2.15%
CCCCCCCCCCCC(=O)N[C@@H](CO)C[C@@H](O)c1cccc(CCCCCC)c1  sphingomyelin level (HeLa; CERT activity, HPLC-MS/MS lipidomics, item: sphingomyelin 22; 1 µM, 24 h, not cell-number normalised): 29200 pmol/sample and 40800 pmol/sample and 30700 pmol/sample
C[C@@H]1CC[C@@H]([C@@](O)(COCc2ccccc2)Cn2cnc3ccccc32)[C@H](OCc2ccccc2)C1  inhibition (HeLa; cell growth or viability, MTT; 10 µM, 72 h): 68.8%
O=S(=O)(Nc1ccc(OC(F)(F)F)cc1)N1CCCC(C2c3ccccc3CCc3ccccc32)C1 (centres unmarked)  cell migration (D341; Transwell; 1.5 µM, 24 h): decreased
CC12CCCC(NC(=O)c3ccc(F)cc3F)(C1)C1CC(C)(C)C1CC2 (centres unmarked)  inhibition (HT-29; cell growth or viability, CCK-8; 300 µM): 99.4%
COc1cccc(CNC[C@@](O)(COCc2ccccc2)[C@@H]2CC[C@@H](C)C[C@H]2OCc2ccccc2)c1  inhibition (A2780; cell growth or viability, MTT; 30 µM, 72 h): 95.1%
O=S(=O)(N[C@H]1CCO[C@@H](C2c3ccc(F)cc3CCc3cc(F)ccc32)C1)c1ccc(OC(F)(F)F)cc1  protein level (D425; immunoblot, item: CCL2; concentration not given): decreased
COc1ccc2c(CNc3ccc(C)cc3)cc(=O)oc2c1  calcium mobilisation signal (COS-7 (untransfected); 500 µM, unit not given; relative to: 3 µM ionomycin): 2.59 ± 1.02
CCC(=CCc1c(O)cc2c(c1O)C(=O)CC(c1ccc(OC)c(O)c1)O2)CC (centres unmarked)  inhibition (HeLa; cell growth or viability, MTT; 3.125 µM, 48 h): 9.32%
COC1CCN(C(=O)/C=C/c2nn(Cc3cccc(C(F)(F)F)c3)c3nc(N)ncc23)CC1  EC50 (FLO-1; cell growth or viability, resazurin; 5 days): 1.67 µM
O=C(N1CCCC1)n1cc(-c2ccc(-c3ccccc3)cc2)nn1  SILAC ratio per peptide (mouse T cells; N-terminal labelling proteomics, item: Ndufv2 N-terminal peptide; 0.001 µM, 6 h; relative to: DMSO): 1.25 and 0.99
N#C[C@@H]1CC(F)(F)CN1C(=O)CNC(=O)c1ccnc2ccc(OCCCN3CCN(C(=O)CCc4ccc(O)c(CN5CCN6CC(=O)[O][Al-]([18F])([O]C(=O)C5)[O]c5ccc(CCC(=O)N7CCN(CCCOc8ccc9nccc(C(=O)NCC(=O)N%10CC(F)(F)C[C@H]%10C#N)c9c8)CC7)cc5C6)c4)CC3)cc12 (some centres unmarked)  internalized fraction (HT1080 cells expressing human FAP; 90 min, 37 °C): 85.8 ± 1.6%
CC(=O)N[C@H](C(=O)N[C@@H](CCC(=O)O)C(=O)N[C@@H](CO)C(=O)N[C@@H](CC(=O)O)C(=O)COC(=O)c1c(C)cccc1C)[C@@H](C)O  cell lysis (THP-1 cells, LPS-primed; pyroptosis, LDH release; 25 µM, LPS 1 µg/mL, 4 h, added: nigericin 5 µM, 2 h): 89.8%
O=C(C[Se]C(=O)c1ccccc1Nc1ccccc1)Nc1cccc(C(F)(F)F)c1  TGI (NCI60 NSCLC subpanel mean; cell growth): 3.21 µM
COC(=O)c1ccc(S(=O)(=O)NC23CCCC(C)(CCC4C2CC4(C)C)C3)cc1 (centres unmarked)  inhibition (HT-29; cell growth or viability, CCK-8; 10 µM): < 50%
CCN(CC)CC(=O)Nc1cccc(-n2cc(-c3ccc4ccc(-c5cn(-c6cccc(NC(=O)CN(CC)CC)c6)nn5)cc4c3)nn2)c1  fold regulation (RCC4; PCR angiogenesis array, item: NOS3; 5 x IC50, 2 h, normoxia; relative to: untreated): 1.02
CC(=O)N[C@H](C(=O)N[C@@H](CCC(=O)O)C(=O)N[C@@H](C)C(=O)N[C@@H](CC(=O)O)C(=O)COC(=O)c1c(C)cccc1C)C(C)C  cell lysis (THP-1 cells, LPS-primed; pyroptosis, LDH release; 25 µM, LPS 1 µg/mL, 4 h, added: nigericin 5 µM, 2 h): 85.3%
CC(C)C[C@@H](NC(=O)[C@H](C)NC(=O)CNC(=O)[C@@H](NC=O)C(C)C)C(=O)N[C@@H](C)C(=O)N[C@@H](C(=O)N[C@H](C(=O)N[C@@H](C(=O)N[C@@H](Cc1c[nH]c2ccccc12)C(=O)N[C@H](CC(C)C)C(=O)N[C@@H](Cc1c[nH]c2ccccc12)C(=O)N[C@H](CC(C)C)C(=O)N[C@@H](Cc1c[nH]c2ccccc12)C(=O)N[C@H](CC(C)C)C(=O)N[C@@H](Cc1c[nH]c2ccccc12)C(=O)NCCO)C(C)C)C(C)C)C(C)C  cells in S phase (MCF7; flow cytometry; 100 nM, 48 h): 17 ± 0.81%
